# Assay results collected from several papers.
# Each line is one published result; not all experiments were run side by side. Values joined by “and” are separate records of one study, mostly repeats; a detail may differ. ± gives the spread as reported.
Structure (SMILES),organism,assay,system,conditions,how to read,quantity,value
C[N+]1=C2C(c3ccccc3)=[N+]([O-])c3ccccc3N2CCC1,Clostridioides difficile,microbial growth,,,,MIC90,32 µg/mL
CC[C@H](C)CCCCC(=O)N[C@@H](CCN)C(=O)N[C@H](C(=O)N[C@@H](CCN)C(=O)N[C@H]1CCNC(=O)[C@H]([C@@H](C)O)NC(=O)[C@H](CCN)NC(=O)[C@H](CCN)NC(=O)[C@H](CC(C)C)NC(=O)[C@@H](CC(C)C)NC(=O)[C@H](CCN)NC1=O)[C@@H](C)O,Escherichia coli,daily serial passaging,ATCC 8739,"highest sub-MIC, 43 days",relative to: initial MIC,MIC fold change,2.21
CN(CCO)CCO.O=C(O)C(Cl)Cl,Chenopodium album,herbicidal activity,,"15 mg/mL, 21 days, post-emergence greenhouse",,inhibition,-54%
CN(C)c1nc(NCc2cc(Cl)c(F)cc2F)c(/N=N/c2ccc(Cl)cc2)c(N(C)C)n1,Ostrinia furnacalis,leaf dipping,,"500 mg/L, 96 h",,mortality,100%
CC[C@H](C)[C@@H]1NC(=O)[C@H](CO)NC(=O)C(C)(CCCCN)NC(=O)[C@@H]2CSSC[C@@H](C(=O)N[C@@H](Cc3ccc(O)cc3)C(N)=O)NC(=O)[C@H](CCCCN)NC(=O)[C@@H]3CSSC[C@H](NC(=O)[C@H](CCCNC(=N)N)NC(=O)C(C)(CC(C)C)NC(=O)[C@H](CC(=O)O)NC(=O)[C@H](CC(=O)O)NC(=O)[C@H](CCC(=O)O)NC(=O)[C@H](CC(N)=O)NC(=O)[C@H](Cc4c[nH]c5ccccc45)NC(=O)C(C)(CC)NC(=O)CNC(=O)[C@H](CC(N)=O)NC(=O)[C@@H](NC(=O)CNC(=O)[C@H](Cc4ccccc4)NC(=O)CN)CSSC[C@H](NC(=O)[C@H](Cc4ccc(O)cc4)NC(=O)CNC(=O)CNC(=O)[C@H](CCCCN)NC(=O)[C@H](Cc4ccc(O)cc4)NC(=O)[C@H]4CCCN4C(=O)[C@@H]4CCCN4C1=O)C(=O)N[C@@H](C)C(=O)N[C@@H](CCCCN)C(=O)N1CCC[C@@H]1C(=O)NCC(=O)N[C@@H](Cc1ccccc1)C(=O)N[C@@H](C(C)C)C(=O)N3)C(=O)N[C@@H](Cc1c[nH]cn1)C(=O)NC(C)(C)C(=O)N[C@@H](Cc1c[nH]cn1)C(=O)N2 (some centres unmarked),Streptococcus pneumoniae,,BS-441,"24 h, 37 °C, 99.9% killing",,MBC,0.5 µM
O=S(=O)(c1ccc(-c2ccc3ncnc(Nc4ccc(OCc5cccc(F)c5)cc4)c3c2)cc1)N1CCOCC1,Trypanosoma cruzi,"intracellular amastigote growth, β-galactosidase CPRG","3T3, Tulahuen, β-galactosidase-expressing","10 µM, 96 h",,inhibition,10%
CC[C@H](C)[C@H](NC(=O)[C@H](Cc1ccccc1)NC(=O)[C@H](CCCCN)NC(=O)[C@H](CCCCN)NC(=O)CNC(=O)[C@H](C)NC(=O)[C@H](CC(N)=O)NC(=O)[C@H](CCCCN)NC(=O)[C@H](Cc1ccccc1)NC(=O)[C@H](CC(N)=O)NC(=O)[C@H](CCC(=O)O)NC(=O)[C@H](Cc1c[nH]c2ccccc12)NC(=O)[C@H](CC(C)C)NC(=O)[C@@H](N)CO)C(=O)N[C@@H](CC(C)C)C(=O)N[C@@H](CC(N)=O)C(=O)N[C@H](C(=O)N[C@@H](CC(C)C)C(=O)N[C@@H](CC(=O)O)C(=O)N[C@@H](CCCCN)C(N)=O)[C@@H](C)CC,Gram-positive bacteria,,,,,geometric mean MIC,20.2 µM
Cc1cc(C(=O)Nc2nc3cccc(C)c3n2[C@H]2CCCCN(C(=O)/C=C/CN(C)C)C2)ccn1,Trypanosoma brucei brucei,,2T1 CLK1 overexpressing,"0.0781 µM, DMSO pretreated",relative to: maximum,survival,62.7% and 64.5% and 67% and 56.7%
O=c1n(CCNCCOS(=O)(=O)c2ccccc2)c(=O)n(S(=O)(=O)c2ccccc2)c(=O)n1S(=O)(=O)c1ccccc1,Candida tropicalis,broth microdilution,,,,MLC,64 ± 6 µg/mL
C=CCN1C(=O)C(CC=C)(C(=O)OCC)Oc2cc(F)ccc21 (centres unmarked),Setaria viridis,,greenhouse,"postemergence, 150 g ai/ha, 21 days",,fresh weight inhibition,42.2 ± 1.06%
CC(C)[C@H]1NC(=O)[C@H](Cc2ccccc2)NC(=O)[C@@H](C(C)C)NC(=O)[C@@H](C)NC(=O)[C@H](CO)NC(=O)[C@@H](Cc2c(-c3ccc(-c4ccc5ccccc5c4)cc3)[nH]c3ccccc23)NC(=O)[C@@H](C)NC1=O,Mycobacterium marinum,,,,,MIC90,31.2 µM

# Repeated from above:
Structure (SMILES),organism,assay,system,conditions,how to read,quantity,value
C[N+]1=C2C(c3ccccc3)=[N+]([O-])c3ccccc3N2CCC1,Clostridioides difficile,microbial growth,,,,MIC90,32 µg/mL
CN(CCO)CCO.O=C(O)C(Cl)Cl,Chenopodium album,herbicidal activity,,"15 mg/mL, 21 days, post-emergence greenhouse",,inhibition,-54%
